Assay results pooled from the literature.
Each line is one published result; not all experiments were run side by side. ± gives the spread as reported. Values after ≈ are worked out from the molar mass of the structure shown.
Sequence of UniProt Q9P289 (whole entry, looked up): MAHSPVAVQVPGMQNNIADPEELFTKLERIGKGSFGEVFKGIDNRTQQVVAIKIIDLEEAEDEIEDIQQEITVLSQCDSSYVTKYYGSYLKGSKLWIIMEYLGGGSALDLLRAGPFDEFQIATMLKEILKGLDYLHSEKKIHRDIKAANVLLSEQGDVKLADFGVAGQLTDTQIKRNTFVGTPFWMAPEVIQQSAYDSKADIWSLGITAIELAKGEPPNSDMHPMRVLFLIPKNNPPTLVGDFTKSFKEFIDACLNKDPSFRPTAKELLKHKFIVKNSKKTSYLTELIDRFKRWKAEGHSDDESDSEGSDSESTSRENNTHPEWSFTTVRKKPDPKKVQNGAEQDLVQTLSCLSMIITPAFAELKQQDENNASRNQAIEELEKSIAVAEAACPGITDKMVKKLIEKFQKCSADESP

| Structure (SMILES) | target or system | assay | test system | conditions | measurement | value |
| --- | --- | --- | --- | --- | --- | --- |
| COc1cc(-c2nc3ccccc3c(=O)n2Nc2ccc([N+](=O)[O-])cc2[N+](=O)[O-])ccc1OCc1cn(CC(=O)Nc2ccc(C)cc2C)nn1 | mushroom tyrosinase | enzyme activity |  | 40 µM, together with: L-DOPA | inhibition | 45.5 ± 8.97% |
| CCOc1c([C@H](C)n2nc(C)c3c(N)ncnc32)cc(Cl)c(F)c1[C@@H]1CNC(=O)C1 |  |  | patients with B-cell malignancies, plasma | oral, 20 mg, day 15, all cohorts, monotherapy | half-life geometric mean | 9.2 h |
| Cc1ccc(N=Nc2c(N)nn3c(-c4ccc(Cl)cc4Cl)cc(-c4ccc(OCc5ccccc5)cc4)nc23)cc1 | Escherichia coli |  | ATCC 25955 |  | MBC/MIC ratio | 4 |
| O=C(Nc1cc(-c2ccc(Cl)cc2)[nH]n1)C1CCCCC1 | STK26 (Homo sapiens, UniProt Q9P289) | enzyme activity, Dundee kinase panel |  | 10 µM | remaining activity | 68% |
| COc1cc(-c2nc3ccccc3c(=O)n2Nc2ccc([N+](=O)[O-])cc2[N+](=O)[O-])ccc1OCc1cn(CC(=O)Nc2ccc([N+](=O)[O-])cc2Cl)nn1 | mushroom tyrosinase | enzyme activity |  | 40 µM, together with: L-DOPA | inhibition | 43.5 ± 1.37% |
| COc1ccc(N=Nc2c(N)nn3c(-c4ccco4)cc(-c4ccc(OCc5ccccc5)cc4)nc23)cc1 | Enterococcus faecalis | broth microdilution | MTCC 0459 |  | MIC | 31.3 µg/mL (≈ 60.6 µM) |
| O=C(O)c1cn(Cc2ccc(C(F)(F)F)cc2)c2ccc(Oc3ccccc3)cc2c1=O | MCF7 |  |  | 72 h | CC50 | 79 ± 8.63 µM |

Some of these lines once more:
| Structure (SMILES) | target or system | assay | test system | conditions | measurement | value |
| --- | --- | --- | --- | --- | --- | --- |
| O=C(O)c1cn(Cc2ccc(C(F)(F)F)cc2)c2ccc(Oc3ccccc3)cc2c1=O | MCF7 |  |  | 72 h | CC50 | 79 ± 8.63 µM |
